Measurements collected from several papers.
Each numbered part is a random draw from the data of one study; scales do not carry over between parts.

Series 1 — technique: protein binding microarray; form: double-stranded DNA, one strand shown; matrix: in vitro; concentration: not given; relative to: not given; reading: higher = stronger binding
Target: Histone acetyltransferase KAT6A, both winged helices, GST fusion (KAT6A, Homo sapiens, UniProt Q92794, residues 1-181)
Setting: 8-mer, flanks averaged, mean of 2 arrays, mostly near background
Residues (chain): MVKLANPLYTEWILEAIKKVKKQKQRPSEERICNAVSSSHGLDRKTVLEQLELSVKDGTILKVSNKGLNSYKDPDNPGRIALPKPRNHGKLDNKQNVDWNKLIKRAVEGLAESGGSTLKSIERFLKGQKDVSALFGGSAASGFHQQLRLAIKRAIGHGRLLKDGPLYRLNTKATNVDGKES
Oligonucleotide | E-score
CCTCTGGA | -0.124
AGTCCCCA | -0.27
TCCGATCA | 0.0554
GTTTCCAA | -0.149
TTTATAAA | 0.195
AATATTAA | 0.0913
AAGCATAT | -0.083
CCGCATTA | 0.16
CCAGGACC | -0.0789
ACGGATGG | 0.167
AGGCATCC | -0.288
AAGGTAAC | -0.102
CTCCGTAC | 0.206
CAAAGATG | -0.103
CTGTAAAA | -0.065
GGACCCTA | -0.183
CCCGAATA | 0.101
GGTTTAAA | -0.0864
ATTCAGTG | -0.155
ATCGAGAC | 0.00853
AGATCCTC | -0.0894
AGGAACTA | -0.208
CGGTCTAA | 0.1
GATTTTCC | 0.0636
AACCCCGT | 0.222

Series 2 — technique: RNA Bind-n-Seq; form: RNA; matrix: in vitro; concentration: 200 nM; setting: whole 134-nt RNA, ends assumed; together with: 150 mM KCl; relative to: input library; reading: higher = stronger binding
Target: Fragile X messenger ribonucleoprotein 1, C-terminal low-complexity region (Fmr1, Mus musculus, UniProt P35922)
Oligonucleotide | log2 enrichment
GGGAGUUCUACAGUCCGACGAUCUUGGCGCAUGCGCCUAAAGCUGACGGGUUUGAAAUGGCUUCGAUGUUAGCCGGGACCCGACUCAGGUGAAGGUCUGGUCCCCGUAGUUGGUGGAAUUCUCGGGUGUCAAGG | -0.871
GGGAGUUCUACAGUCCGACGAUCCUCAAGUCCUGUGCUACACAUCGUAUGUACCGAAUCGGUUUUUUUGGUGGAGGAAAGUAUUAUGUUACGCCGUUCGGAUCUGCACUUCCAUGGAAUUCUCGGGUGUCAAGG | -0.0507
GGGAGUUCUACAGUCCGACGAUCCUCAAGUCCUGUGCUACACAUCGUAUGUACCGAAUCGGGUGGGUUUGGGAGGGAAAGUAUUAUGUUACGCCGUUCGGAUCUGCACUUCCAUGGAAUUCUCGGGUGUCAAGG | 1.37
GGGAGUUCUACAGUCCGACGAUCUCCUGUGCUACACAUCGUAUGUACCGAAUCGGGGUUUUUUGGGUUUUUUGGUUUUUUGGGAAAGUAUUAUGUUACGCCGUUCGGAUCUGCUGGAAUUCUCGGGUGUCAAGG | 0.0014
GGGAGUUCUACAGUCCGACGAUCGUCCUGUGCUACACAUCGUAUGUACCGAAUCAAACCCAAACCCCCAAAUUUUUUUAAAAAAGUAUUAUGUUACGCCGUUCGGAUCUGCACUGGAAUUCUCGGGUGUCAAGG | -0.226
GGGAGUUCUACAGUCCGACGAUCCACAGACAACACGCACCCACACAGACACAGAGGGAAGGGGUUGGGAUGGGGACAGGAUGCACAGCAGGGCGGGGUAGGACCCCAGCCCCUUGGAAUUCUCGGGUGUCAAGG | 1.15
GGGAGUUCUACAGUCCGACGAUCCAAGUCCUGUGCUACACAUCGUAUGUACCGAAUCGGGCCCGGGGCCCGGGGCCCGGAAAGUAUUAUGUUACGCCGUUCGGAUCUGCACUUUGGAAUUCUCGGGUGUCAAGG | -0.528
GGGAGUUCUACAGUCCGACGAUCUCCUGUGCUACACAUCGUAUGUACCGAAUCGGGUUUUUUUGGGAAAAAAAGGGAAAGGGAAAGUAUUAUGUUACGCCGUUCGGAUCUGCAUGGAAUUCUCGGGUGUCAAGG | -0.234
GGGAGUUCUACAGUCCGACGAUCCAAGUCCUGUGCUACACAUCGUAUGUACCGAAUCGGGGCCCGGGCCCGGCCCGGGGAAAGUAUUAUGUUACGCCGUUCGGAUCUGCACUUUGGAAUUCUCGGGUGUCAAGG | -0.721
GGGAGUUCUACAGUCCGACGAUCCAAGUCCUGUGCUACACAUCGUAUGUACCGAAUCGGGGAAAGGAAAGGGGAAAGGGAAAGUAUUAUGUUACGCCGUUCGGAUCUGCACUUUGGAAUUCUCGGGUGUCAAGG | 0.47

Series 3 — technique: RNA Bind-n-Seq; form: RNA; matrix: in vitro; concentration: 365 nM; relative to: no-protein control; reading: higher = stronger binding
Target: RNA binding protein fox-1 homolog 2, RRM domain, GST-SBP tag (RBFOX2, Homo sapiens, UniProt O43251-10, residues 100-194)
Setting: natural RNA segment, single round, ends assumed
Residues (chain): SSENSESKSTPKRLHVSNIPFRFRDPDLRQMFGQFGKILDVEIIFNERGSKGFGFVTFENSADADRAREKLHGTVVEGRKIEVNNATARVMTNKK
Oligonucleotide | RBNS enrichment (R)
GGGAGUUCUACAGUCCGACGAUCAUCAGAAGUCCUAGACAGUGACAUUUCUUAAUGGUGGGAGUCCAGCUCAUGCAUUUCUGAUUAUACAAAACAGUUUGCAGUAGGUUAUUUGUCAUUUCAGUUUUUUACUGUGGAAUUCUCGGGUGCCAA | 0.609
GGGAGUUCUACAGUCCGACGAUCACCUUUUGUUAAUUAUCUAAAUGGGAAAUGCCAUUAGCUAAACCCCACACACAGCACAGAGAGCAGAGUUUAACCAUAGAUCAUGGUAGGCUCAACAUUCCCUUCUAAAGUGGAAUUCUCGGGUGCCAA | 0.426
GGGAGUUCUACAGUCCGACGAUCAGAAGAGAUGGGCUCAGCCUGAACUAGUUGUCUGUGAAAAGACUCCUAACGUUGCGUUAACAUAUUUGUAUAUAUGCUGGUCUCAACUUUGGAUCUAGACCUGGGGCCAGUGGAAUUCUCGGGUGCCAA | 0.663
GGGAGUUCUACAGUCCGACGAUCGGGCUGGACUGUGAGCAGCUCUGGGUUAAUACAGGGCAGGCAAUCCUUAAACAGCUAGCAUGAAACAGUUUUGUCGUGGCCACCAGGCUUCUGUGGGAACAGUCCUUCUCUGGAAUUCUCGGGUGCCAA | 4.25
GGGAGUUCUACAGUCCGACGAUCGGAUCUCAGAAUAUAUUCGUCCACCCCCUCGGCACCCCAUUACCCCGAGUCCCACCGUGUGUCCGUUGUAAGUCCGGUGGAUGUGGCUGGGGUUUCCUGGUAUUGUGGAGUGGAAUUCUCGGGUGCCAA | 0.38
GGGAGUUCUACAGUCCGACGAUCAUACGAUUUGCACCUUUCUGUUUUCCUGCAGUCAGGGUGGUGGCCUGCAGGGACCUGAGCUUUGCUACCCAACCAGAUUCCUCAUAGAGAUUCCUAAUCACUAGUUUCUUUGGAAUUCUCGGGUGCCAA | 0.897
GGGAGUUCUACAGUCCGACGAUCGUGAGGAGUUUCCUACCAGUUCACUCCAGUGCCAUUGUCUUUAUAUGAACGUAGUGUAGAGAAGCUGCCCUCCUCUUCCAUGGUAGCGCUCAAAGCCCUAAUGGAAGUUUUGGAAUUCUCGGGUGCCAA | 0.302
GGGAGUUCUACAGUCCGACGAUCUGGACCUGGAAUAUCCCUUAUUGCCUAUAAUGGAAUAUGUGACACUGUGGGUGAAAUGUUCUACACACCACACACUAGGCCAUUUUCAGAUCAGCAGUCACCCAUCGCUUUGGAAUUCUCGGGUGCCAA | 0.557
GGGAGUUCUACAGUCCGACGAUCACUGCAUAAUGCUCUGGCACUGUAUUUUGAAUGACAUUAAUUUAUUAAAUAAAUUGUAUAUAAUCAGAUCUGUUGGUUUUUUGGUUUUUGUUUUUUUCUUUUGUGAUGGGUGGAAUUCUCGGGUGCCAA | 0.899
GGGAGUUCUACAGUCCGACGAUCUGAUCUGCCUCUAAAAGCGUUGGAUGUAGCAUUAUGCAAUUAGGUUUUUCCUUAUUUGCUUCAUUGUACUACCUGUGUAUAUAGUUUUUACCUUUUAUGUAGCACAUAAAUGGAAUUCUCGGGUGCCAA | 0.923
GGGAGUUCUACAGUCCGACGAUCAUGAUACAGGGCACCACGGAGAGAAAGUAGAACCAUUUCACUCCUGGGAAGAUGGGGUAUUUCCCACUUCCAGCAACGAAAUAACAAAUGAAAAGUUGCAUACUUAUUGAUGGAAUUCUCGGGUGCCAA | 0.892
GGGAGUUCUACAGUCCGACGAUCCACAGCUUCAAAUGUUACCGUCUAGUUAGAUUUUUAUUUAAAAUAUGAAAAACUGCUUUUCCCAAGAUGUUUUUUAAAAACAAAGCUACAAUUUUAAUAUUUAACAUAUUUGGAAUUCUCGGGUGCCAA | 1.15

Series 4 — technique: protein-binding microarray; form: double-stranded DNA, one strand shown; matrix: in vitro; concentration: 2540 nM top; setting: 60-bp whole probe; together with: salmon DNA 0.4 mg/ml; relative to: random background probes; reading: higher = stronger binding; constant ends, left off below: GCCTAGCAC … GTCTTGATTCGCTTGACGCTGCTG
Target: Interferon regulatory factor 3, full length, phosphomimetic (IRF3, Homo sapiens, UniProt Q14653, residues 1-427, S386D/S396D/S398D/S402D/T404D/S405D)
Target sequence (chain): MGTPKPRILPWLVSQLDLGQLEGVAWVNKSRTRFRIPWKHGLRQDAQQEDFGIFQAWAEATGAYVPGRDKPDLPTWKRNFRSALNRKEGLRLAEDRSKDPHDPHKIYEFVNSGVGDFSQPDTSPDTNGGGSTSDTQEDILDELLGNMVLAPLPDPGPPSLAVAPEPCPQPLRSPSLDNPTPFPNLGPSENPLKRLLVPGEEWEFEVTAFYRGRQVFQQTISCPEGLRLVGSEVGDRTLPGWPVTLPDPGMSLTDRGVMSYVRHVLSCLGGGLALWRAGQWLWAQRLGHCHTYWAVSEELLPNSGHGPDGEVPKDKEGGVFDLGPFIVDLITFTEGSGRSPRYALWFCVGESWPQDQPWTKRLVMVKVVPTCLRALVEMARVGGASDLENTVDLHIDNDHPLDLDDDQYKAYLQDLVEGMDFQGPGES
Oligonucleotide | fitted relative affinity [z-score]
GACGGTATCGGGTTTCAGGACGTGCTA | 2.74
TGTGGGTTTCGGTGTGGGAGGTGCTAG | 4.03
TTAGGTATCGCCTTTCGGTTAGTGCTA | 1.4
TTAGATTTCCGTTCCGATTAGTGCTAG | 5.31
TTAGGACTGGGGTTTCGGCTAGTGCTA | -0.276
TTAGCACTGCTTCTCCTTTAGTGCTAG | -0.248
CTAGGTCTCGGACTGGGTTAGTGCTAG | -0.16
GACGGTCTCCTACTGCAGACGTGCTAG | 1.24
GACCGTTTCCTTTTCCTGACGTGCTAG | 9.19
TTAGAACAGAGTATCGATTAGTGCTAG | 0.243
TCATATTTGTTTCCATTACTGTGCTAG | 4.53
TACGATTTCGGGTTTCGAGACGTGCTA | 2.43
TTAGGCTTCCTTCTCCTTTAGTGCTAG | 1.75
CTGCATTACAGCTATTTTTAGGTGCTA | 0.102
TTAGATATCAGGCTCGATTAGTGCTAG | 0.0278
TCAATTCTCAACCCTGGTACTGTGCTA | 0.73
GACGGACTGGACTTTCGTGACGTGCTA | -0.485
TTTGATTCCAGTTTCGATTAGTGCTAG | 4.25
GACGATTTTAGTTTCGAGACGTGCTAG | 3.71
AGATGAAAAGTGAAGCCTAGGTGCTAG | -0.1
CTTTCTCTGCTCTTTTCAACAGTGCTA | 5.85
GACAGTATCGACTTTCGGGACGTGCTA | 1.45
TTTGGTATCCTTCTCCTTTAGTGCTAG | 8.06
TTAGAACTGTGTCTCGATTAGTGCTAG | -0.2
TTAGAATCCAGTTTCGATTAGTGCTAG | 4.13

Some of these lines once more (series 4):
Oligonucleotide | fitted relative affinity [z-score]
GACGGACTGGACTTTCGTGACGTGCTA | -0.485
TTTGATTCCAGTTTCGATTAGTGCTAG | 4.25
GACGATTTTAGTTTCGAGACGTGCTAG | 3.71
AGATGAAAAGTGAAGCCTAGGTGCTAG | -0.1
CTTTCTCTGCTCTTTTCAACAGTGCTA | 5.85
GACAGTATCGACTTTCGGGACGTGCTA | 1.45
TTTGGTATCCTTCTCCTTTAGTGCTAG | 8.06
TTAGAACTGTGTCTCGATTAGTGCTAG | -0.2
TTAGAATCCAGTTTCGATTAGTGCTAG | 4.13
